Experimental data pooled from the literature.
Parts stem from different laboratories: compare values within a part only.

Series 1
Target: Ras GTPase-activating protein-binding protein 1, full length (G3BP1, Homo sapiens, UniProt Q13283)
UniProt Q13283, sequence (whole entry, looked up): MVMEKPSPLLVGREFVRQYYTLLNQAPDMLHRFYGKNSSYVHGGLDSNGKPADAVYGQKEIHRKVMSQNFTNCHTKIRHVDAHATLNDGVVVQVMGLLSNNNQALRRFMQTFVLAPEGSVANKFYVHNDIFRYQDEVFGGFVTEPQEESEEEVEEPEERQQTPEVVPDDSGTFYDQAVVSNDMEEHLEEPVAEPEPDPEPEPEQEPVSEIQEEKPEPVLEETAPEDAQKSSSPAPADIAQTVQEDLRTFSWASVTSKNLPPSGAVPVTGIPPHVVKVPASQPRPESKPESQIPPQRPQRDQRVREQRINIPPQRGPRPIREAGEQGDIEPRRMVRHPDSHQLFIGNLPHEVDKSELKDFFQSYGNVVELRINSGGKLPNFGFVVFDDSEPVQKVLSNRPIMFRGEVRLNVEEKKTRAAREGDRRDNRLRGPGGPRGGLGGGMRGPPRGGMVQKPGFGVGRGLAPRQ
Method: RNA Bind-n-Seq
Form: RNA
Medium: in vitro
Concentration: 200 nM
Notes: whole 134-nt RNA, ends assumed
Together with: 150 mM KCl
Relative to: input library
Direction: higher = stronger binding
Shared flanks, not repeated: GGGAGUUCUACAGUCCGACGAUC … UGGAAUUCUCGGGUGUCAAGG
| Oligonucleotide | log2 enrichment |
| --- | --- |
| AAGUCCUGUGCUACACAUCGUAUGUACCGAAUCGGUUUUUGGUUUGGAAAAAAAGGAAAGUAUUAUGUUACGCCGUUCGGAUCUGCACUU | -1.46 |
| CUGUGCUACACAUCGUAUGUACCGAAUCGGGGCCCCCCCGGGCCCCCCCGGCCCCCCCGGGAAAGUAUUAUGUUACGCCGUUCGGAUCUG | -0.697 |
| GAAAAUUUCUCAGUUCUUAAGAAUGCUUGCUGUGGGUAUAGUGCAGGUAUAUUGAAAGGAAUUUUUUUCUUGCAGCGGGAAAGAGACAUG | -1.22 |
| CAAGUCCUGUGCUACACAUCGUAUGUACCGAAUCGGGAAAGGGAAAGGGAAAGGGGAAAGUAUUAUGUUACGCCGUUCGGAUCUGCACUU | 0.623 |
| CCUGUGCUACACAUCGUAUGUACCGAAUCGGGGAAAAAAAGGGGUUUGGGGAAAAAGGGGAAAGUAUUAUGUUACGCCGUUCGGAUCUGC | 0.222 |
| CAAGUCCUGUGCUACACAUCGUAUGUACCGAAUCGGGAAAAAGGGAAAGGGUGGGAAAGUAUUAUGUUACGCCGUUCGGAUCUGCACUUC | 0.77 |
| CCUCAAGUCCUGUGCUACACAUCGUAUGUACCGAAUCGGGAGGGGAGGAGGGGAAAGUAUUAUGUUACGCCGUUCGGAUCUGCACUUCCA | 1.24 |
| AAGUCCUGUGCUACACAUCGUAUGUACCGAAUCAAACCCCCAAAUUUAAACCCAAAAAAGUAUUAUGUUACGCCGUUCGGAUCUGCACUU | -0.312 |
| AAGUCCUGUGCUACACAUCGUAUGUACCGAAUCGGUUUUGGGUUUUGGGGUUUUGGAAAGUAUUAUGUUACGCCGUUCGGAUCUGCACUU | -0.961 |

Series 2
Target: Prothrombin, mature alpha-thrombin (F2, Homo sapiens, UniProt P00734)
Method: aptamer microarray, sandwich
Form: DNA with 2'F-ANA
Medium: in vitro
Concentration: 200 nM
Notes: whole 15-mer aptamer, many near background
Together with: Cy3 exosite-II aptamer, 400 nM
Direction: higher = stronger binding
Oligonucleotide: GGTTGGTGTGGTTGG
| Modification | mean fluorescence intensity [a.u.] |
| --- | --- |
| 2'F-ANA at 4 5 7 9 10 11 12 13 15 | 48.8 |
| 2'F-ANA at 2 3 6 8 10 15 | 318 |
| 2'F-ANA at 2 5 8 10 12 14 | 68.5 |
| 2'F-ANA at 3 5 6 10 11 12 14 | 49.7 |
| 2'F-ANA at 1 2 6 8 14 15 | 58.9 |
| 2'F-ANA at 2 3 4 5 7 9 10 12 13 14 15 | 45.7 |
| 2'F-ANA at 2 3 7 13 14 | 471 |
| 2'F-ANA at 2 3 6 7 8 10 12 | 445 |
| 2'F-ANA at 1 2 3 4 5 7 8 11 12 13 15 | 70.6 |
| 2'F-ANA at 1 2 3 5 7 10 11 12 14 | 61.9 |
| 2'F-ANA at 1 2 6 8 13 14 | 53.3 |
| 2'F-ANA at 2 3 6 7 8 9 10 11 13 14 | 235 |
| 2'F-ANA at 1 2 4 5 9 12 14 | 43.8 |
| 2'F-ANA at 1 3 4 5 6 7 9 10 | 51.4 |
| 2'F-ANA at 6 7 8 9 10 11 12 13 14 | 102 |
| 2'F-ANA at 1 2 5 6 10 12 13 14 15 | 48.2 |
| 2'F-ANA at 3 5 6 8 9 10 11 15 | 76.2 |
| 2'F-ANA at 1 2 3 4 6 7 10 11 13 14 | 45.8 |
| 2'F-ANA at 1 3 4 5 11 12 13 | 156 |

Series 3
Target: RNA binding protein fox-1 homolog 2, RRM domain, GST-SBP tag (RBFOX2, Homo sapiens, UniProt O43251-10, residues 100-194)
Method: RNA Bind-n-Seq
Form: RNA
Medium: in vitro
Concentration: 365 nM
Notes: natural RNA segment, single round, ends assumed
Relative to: no-protein control
Direction: higher = stronger binding
Shared flanks, not repeated: GGGAGUUCUACAGUCCGACGAUC … UGGAAUUCUCGGGUGCCAA
Residues (chain): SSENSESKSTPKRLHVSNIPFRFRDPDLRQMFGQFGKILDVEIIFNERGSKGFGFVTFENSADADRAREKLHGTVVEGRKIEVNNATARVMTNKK
| Oligonucleotide | RBNS enrichment (R) |
| --- | --- |
| CGCCGGCGCAGGGUCCCAAGCCCACCUCCCGCCCUCAGUCCUGCGGUGUGCGUCUGGGCACGUCCUGCACACACAAUGCAAGUCCUGGCCUCCGCGCCCGCCCGCCCACG | 0.184 |
| GCAAGUACCAGACCAGUGAACAGCUCCGGAGGAACAGGUUGUUCUCUGACCUCUACACGUAUGCCACGCUUGUACCCACACACGCGCACACACACAGACUUAUAAUGCAA | 2.47 |
| ACAGGUAUGAGCCACCAUGCCCGGCUGGCAGUUGUAUUUUUUAAAGCCCUUCUGAUGAUUCCAAUGUGUUGGAAAGUUUACCUUGUCUCAGAUGUAACUGGUAAAGGCUG | 0.623 |
| GUGUUACGUGCAGGAACGUGGAGACCCUGACGUGGGCUCACUGCGUUUGGUUUUCUUUUCAGAACUUGGGAGCCCCCAGGGAGGGGCUAGUGUUGGUAGGUCCUAGACGU | 0.469 |
| GCUGGGCUCAUUUCGGUCCCUUUCUCCUUGGUCCCAGACCUUGGGGGAAAGGAAGGAAGUGCAUGUUUGGGAACUGGCAUUACUGGAACUAAUGGUUUUAACCUCCUUAA | 4.15 |
| GCCUUCCACACUAGAUGGUCCAAUCCUACUGGAUGGUCGGUUGCUGCUCACAUCUGCCUGCAAGUCUUUCCAGUACUCCUGGGAUAUCCUGUAAUAGACUCGGGUCCUGU | 0.2 |
| UCACCACCAGCAUUCUCUGCCUGUGGGGUUGUGGGGCUGGUGCUUUCUCCAUUUCUGAGGGUCAGGAUGGCCAAGCAUGGAUUAACACUAGGAGAGUGCAGAGCGCAGCA | 14 |
| ACGGACCUCACUGCUACUGCUGCCUCCAUUAACGCUGUGCUCACACAUUGUCUGGGAUUUUAAGGAUGUCAAACUGCUGUAGAUGACUCAAUAAAUGUCUUAUCGUUUUU | 0.535 |

Series 4
Target: Histone acetyltransferase KAT6A, winged helix 2, GST fusion (KAT6A, Homo sapiens, UniProt Q92794, residues 85-181)
Method: protein binding microarray
Form: double-stranded DNA, one strand shown
Medium: in vitro
Concentration: not given
Notes: 8-mer, flanks averaged, mean of 2 arrays, mostly near background
Relative to: not given
Direction: higher = stronger binding
Construct (chain): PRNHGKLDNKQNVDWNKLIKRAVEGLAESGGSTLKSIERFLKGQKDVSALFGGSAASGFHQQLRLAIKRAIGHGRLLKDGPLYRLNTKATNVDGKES
| Oligonucleotide | E-score |
| --- | --- |
| AGGATGGC | 0.0779 |
| GTTTAGCA | 0.188 |
| AAATTTTG | -0.0834 |
| ATCCGAGC | 0.0251 |
| GACCCACA | 0.128 |
| CTGGGTGA | 0.212 |
| ATTGATGG | -0.0435 |
| GTCGGTCA | -0.0247 |
| CATGATTC | -0.0816 |
| CTGTAGAC | -0.027 |
| AGCGGAGA | 0.098 |
| CGACGGAG | -0.00485 |
| CCTGTAAC | -0.09 |
| AGGTGAGC | -0.0721 |
| TAGATCGA | -0.131 |
| AGTAAGGC | -0.0749 |
| CATCCCTA | -0.156 |
| ACGAGCAA | -0.0645 |
| AAGCATCA | -0.0322 |
| AAGATCCG | -0.133 |
| AGCGGGAA | 0.216 |
| AAAGTAAC | -0.09 |
| AAGTGGAC | 0.0868 |
| AAATCGCC | 0.125 |
| AGCGCGTA | 0.14 |

Excerpt of the above (series 4):
| Oligonucleotide | E-score |
| --- | --- |
| AAAGTAAC | -0.09 |
| AAGTGGAC | 0.0868 |
| AGCGGGAA | 0.216 |
| AGGATGGC | 0.0779 |
| GTTTAGCA | 0.188 |
| TAGATCGA | -0.131 |
| AAATCGCC | 0.125 |
| CTGTAGAC | -0.027 |
| CCTGTAAC | -0.09 |
